Measured values of several laboratories.
Protocols differ between the studies behind these lines.
Target: Mitogen-activated protein kinase kinase kinase 13 (MAP3K13, Homo sapiens, UniProt O43283)

SMILES	test	setting	scale	quantity	result
COc1cc(Nc2nc(C)cc(-c3cnn4nc(OC)ccc34)n2)cc(C(F)(F)F)c1	KINOMEscan	1 µM, LZK	relative to: DMSO	remaining binding	95%
Cc1ccc(-c2c(/C=C(\C#N)C(=O)NC(C)C)n(CCCO)c3ncnc(N)c23)cc1	cell-free assay, competition with immobilised ligand	1 µM	–	remaining binding	96%
COc1cc(Nc2nccc(-c3cnn4nc(OC)ccc34)n2)cc(C(F)(F)F)c1	binding, competition with immobilised ligand	1 µM	–	remaining binding	100%
C=CC(=O)N1CCc2ccc(-n3c(=O)ccc4cnc5ccc(-c6cnn(C)c6)cc5c43)cc21	KINOMEscan	1 µM	relative to: DMSO control	remaining binding	100%
Nc1ncc2c(n1)-c1c([nH]c3ccc(C4=CCOCC4)cc13)CCC2	binding, competition with immobilised ligand	1 µM	–	remaining binding	100%
C=CC(=O)N1CCCC(n2c(=O)c3ncccc3n(Cc3ccc(Oc4ccccc4)cc3)c2=O)C1 (stereo not shown)	cell-free assay, competition with immobilised ligand	1 µM	–	remaining binding	74%
CNC(=O)C1CCN(c2cc(C)c(F)cc2NC(=O)c2ccc(-c3cc(O)ccc3C)c(C)c2)CC1	binding, competition with immobilised ligand	1 µM	–	remaining binding	100%
COc1c(Cl)cccc1Nc1c(-c2ccncc2C#C[C@@]2(C)CCCN2C(=O)/C=C/CN(C)C)[nH]c2c1C(=O)NCC2	binding, competition with immobilised ligand	3 µM	–	remaining binding	77%
CCn1cc(C(=O)O)c(=O)c2c(N)c(F)c(NC3CCCCC3)cc21	kinase activity	0.1 µM, added: ATP at Km	–	inhibition	16.3%
CC(C)=CC1OC(C)(C)C2C=C3C(=O)C(Cl)=CC(O)C3C3C(O)C4OC4C(=O)C132 (stereo not shown)	cell-free assay, competition with immobilised ligand	10 µM	–	remaining binding	84%
CNC1C[S+]2CC[S+]3CC[S+](C1)[Ru-4]321([N]=C=S)[n]2c3ccc(OC)cc3c3c4c(c5cc(F)c[n+]1c5c32)C(=O)NC4=O (stereo not shown)	KinomeScan	0.1 µM	relative to: untreated	remaining binding	98%
CCN1CCN(Cc2ccc(C(=O)Nc3ccc(C)c(NCc4cnc5[nH]ccc5c4OC)c3)cc2C(F)(F)F)CC1	binding, competition with immobilised ligand	1 µM	–	remaining binding	98%
Cc1cnc2nc1Nc1cccc(c1)COC/C=C/COCc1cc(ccc1OCCN1CCOCC1)N2	cell-free assay	0.1 µM	–	remaining signal	94%

Repeated from above:
SMILES	test	setting	scale	quantity	result
CC(C)=CC1OC(C)(C)C2C=C3C(=O)C(Cl)=CC(O)C3C3C(O)C4OC4C(=O)C132 (stereo not shown)	cell-free assay, competition with immobilised ligand	10 µM	–	remaining binding	84%
